Measurements gathered from unrelated publications.
Each numbered part is a random draw from the data of one study; scales do not carry over between parts.
Sequence of UniProt P10721 (whole entry, unmodified, looked up): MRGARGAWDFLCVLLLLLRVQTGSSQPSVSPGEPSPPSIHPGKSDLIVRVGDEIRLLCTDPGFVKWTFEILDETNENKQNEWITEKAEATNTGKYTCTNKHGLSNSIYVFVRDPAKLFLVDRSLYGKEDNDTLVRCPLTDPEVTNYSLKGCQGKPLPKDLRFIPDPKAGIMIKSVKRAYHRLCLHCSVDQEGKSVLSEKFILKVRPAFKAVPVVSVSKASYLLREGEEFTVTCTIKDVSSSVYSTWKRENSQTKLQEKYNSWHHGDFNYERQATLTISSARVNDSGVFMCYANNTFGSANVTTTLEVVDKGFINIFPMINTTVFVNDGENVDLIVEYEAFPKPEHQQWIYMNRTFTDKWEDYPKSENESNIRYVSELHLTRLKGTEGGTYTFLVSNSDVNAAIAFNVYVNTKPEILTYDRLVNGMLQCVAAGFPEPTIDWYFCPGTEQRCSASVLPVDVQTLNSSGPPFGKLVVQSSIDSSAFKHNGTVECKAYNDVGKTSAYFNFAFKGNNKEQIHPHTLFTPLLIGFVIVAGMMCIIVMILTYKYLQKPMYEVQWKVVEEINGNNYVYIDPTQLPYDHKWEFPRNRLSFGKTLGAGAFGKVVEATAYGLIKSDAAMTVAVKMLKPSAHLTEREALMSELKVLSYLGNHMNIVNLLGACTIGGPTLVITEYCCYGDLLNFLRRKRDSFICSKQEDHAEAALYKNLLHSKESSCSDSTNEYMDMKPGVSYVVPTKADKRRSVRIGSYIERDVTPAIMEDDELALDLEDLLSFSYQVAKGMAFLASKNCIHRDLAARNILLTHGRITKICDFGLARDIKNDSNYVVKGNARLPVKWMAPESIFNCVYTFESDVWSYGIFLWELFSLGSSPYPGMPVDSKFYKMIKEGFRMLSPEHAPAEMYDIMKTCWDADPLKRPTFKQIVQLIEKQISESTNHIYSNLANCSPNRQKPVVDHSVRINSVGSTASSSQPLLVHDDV
Sequence of UniProt P21802 (whole entry, looked up): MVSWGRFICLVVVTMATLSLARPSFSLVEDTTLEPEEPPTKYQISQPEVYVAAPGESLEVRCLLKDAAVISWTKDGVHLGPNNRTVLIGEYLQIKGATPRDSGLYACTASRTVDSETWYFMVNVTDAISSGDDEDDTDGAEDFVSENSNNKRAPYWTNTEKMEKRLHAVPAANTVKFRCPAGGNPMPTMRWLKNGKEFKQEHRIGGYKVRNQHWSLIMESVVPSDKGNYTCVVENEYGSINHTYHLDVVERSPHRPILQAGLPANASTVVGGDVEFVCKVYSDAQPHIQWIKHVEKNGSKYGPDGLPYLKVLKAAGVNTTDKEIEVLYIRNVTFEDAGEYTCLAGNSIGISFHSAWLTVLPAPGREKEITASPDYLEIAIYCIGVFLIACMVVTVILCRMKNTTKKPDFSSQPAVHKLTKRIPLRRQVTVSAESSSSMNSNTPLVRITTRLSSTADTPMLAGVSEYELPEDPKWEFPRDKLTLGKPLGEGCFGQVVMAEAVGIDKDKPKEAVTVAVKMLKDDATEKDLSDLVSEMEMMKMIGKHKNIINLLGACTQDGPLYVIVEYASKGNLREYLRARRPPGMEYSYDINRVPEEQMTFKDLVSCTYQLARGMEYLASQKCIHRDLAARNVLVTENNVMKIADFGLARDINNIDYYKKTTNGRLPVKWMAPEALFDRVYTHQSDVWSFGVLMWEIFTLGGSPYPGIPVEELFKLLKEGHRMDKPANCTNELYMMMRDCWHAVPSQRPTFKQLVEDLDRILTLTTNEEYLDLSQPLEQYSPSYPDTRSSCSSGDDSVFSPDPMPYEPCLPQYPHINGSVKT
Sequence of UniProt Q13546 (whole entry, looked up): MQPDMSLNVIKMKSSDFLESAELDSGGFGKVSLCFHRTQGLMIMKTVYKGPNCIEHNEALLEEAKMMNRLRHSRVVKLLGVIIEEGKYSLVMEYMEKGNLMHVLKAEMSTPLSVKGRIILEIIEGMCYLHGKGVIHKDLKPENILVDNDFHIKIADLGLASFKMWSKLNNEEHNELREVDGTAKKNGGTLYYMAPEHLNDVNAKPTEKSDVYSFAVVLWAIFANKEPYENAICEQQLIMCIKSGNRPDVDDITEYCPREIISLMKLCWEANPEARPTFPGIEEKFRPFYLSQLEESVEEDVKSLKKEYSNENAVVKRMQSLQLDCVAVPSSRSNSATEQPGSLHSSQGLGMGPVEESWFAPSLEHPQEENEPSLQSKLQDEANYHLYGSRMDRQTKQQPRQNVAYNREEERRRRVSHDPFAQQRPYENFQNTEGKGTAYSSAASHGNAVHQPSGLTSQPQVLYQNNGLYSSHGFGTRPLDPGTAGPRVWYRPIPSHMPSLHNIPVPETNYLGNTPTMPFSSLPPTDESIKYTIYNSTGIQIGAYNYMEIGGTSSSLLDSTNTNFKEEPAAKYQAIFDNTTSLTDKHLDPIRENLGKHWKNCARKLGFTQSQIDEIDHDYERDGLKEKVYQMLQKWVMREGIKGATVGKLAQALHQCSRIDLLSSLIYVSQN
Sequence of UniProt Q12866 (whole entry, looked up): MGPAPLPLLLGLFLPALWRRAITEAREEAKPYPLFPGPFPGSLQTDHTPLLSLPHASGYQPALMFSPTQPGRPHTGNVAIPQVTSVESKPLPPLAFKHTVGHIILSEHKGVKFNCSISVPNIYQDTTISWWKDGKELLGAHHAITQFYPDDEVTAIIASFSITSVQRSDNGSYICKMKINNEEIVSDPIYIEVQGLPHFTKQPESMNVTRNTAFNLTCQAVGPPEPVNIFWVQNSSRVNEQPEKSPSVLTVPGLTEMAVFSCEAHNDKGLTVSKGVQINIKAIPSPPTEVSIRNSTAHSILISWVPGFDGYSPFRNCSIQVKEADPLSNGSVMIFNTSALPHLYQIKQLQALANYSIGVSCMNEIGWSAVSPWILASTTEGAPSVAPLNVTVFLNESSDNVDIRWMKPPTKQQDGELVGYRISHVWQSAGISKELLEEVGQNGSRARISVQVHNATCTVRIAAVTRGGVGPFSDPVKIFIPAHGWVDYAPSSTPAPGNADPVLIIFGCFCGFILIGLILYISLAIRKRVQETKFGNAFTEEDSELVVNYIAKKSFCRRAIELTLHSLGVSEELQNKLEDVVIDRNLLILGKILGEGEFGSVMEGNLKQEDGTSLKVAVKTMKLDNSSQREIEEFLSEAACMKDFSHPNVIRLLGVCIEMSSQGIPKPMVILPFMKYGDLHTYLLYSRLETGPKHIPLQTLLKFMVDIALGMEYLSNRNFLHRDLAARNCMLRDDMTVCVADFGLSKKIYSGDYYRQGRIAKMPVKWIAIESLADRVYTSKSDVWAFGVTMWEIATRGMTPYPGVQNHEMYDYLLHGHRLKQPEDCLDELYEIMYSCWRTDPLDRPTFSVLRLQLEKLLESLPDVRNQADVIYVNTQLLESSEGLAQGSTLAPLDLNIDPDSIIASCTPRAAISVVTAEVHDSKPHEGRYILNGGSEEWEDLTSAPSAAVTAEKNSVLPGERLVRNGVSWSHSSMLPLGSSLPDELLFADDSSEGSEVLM
Sequence of UniProt Q8TDC3 (whole entry, looked up): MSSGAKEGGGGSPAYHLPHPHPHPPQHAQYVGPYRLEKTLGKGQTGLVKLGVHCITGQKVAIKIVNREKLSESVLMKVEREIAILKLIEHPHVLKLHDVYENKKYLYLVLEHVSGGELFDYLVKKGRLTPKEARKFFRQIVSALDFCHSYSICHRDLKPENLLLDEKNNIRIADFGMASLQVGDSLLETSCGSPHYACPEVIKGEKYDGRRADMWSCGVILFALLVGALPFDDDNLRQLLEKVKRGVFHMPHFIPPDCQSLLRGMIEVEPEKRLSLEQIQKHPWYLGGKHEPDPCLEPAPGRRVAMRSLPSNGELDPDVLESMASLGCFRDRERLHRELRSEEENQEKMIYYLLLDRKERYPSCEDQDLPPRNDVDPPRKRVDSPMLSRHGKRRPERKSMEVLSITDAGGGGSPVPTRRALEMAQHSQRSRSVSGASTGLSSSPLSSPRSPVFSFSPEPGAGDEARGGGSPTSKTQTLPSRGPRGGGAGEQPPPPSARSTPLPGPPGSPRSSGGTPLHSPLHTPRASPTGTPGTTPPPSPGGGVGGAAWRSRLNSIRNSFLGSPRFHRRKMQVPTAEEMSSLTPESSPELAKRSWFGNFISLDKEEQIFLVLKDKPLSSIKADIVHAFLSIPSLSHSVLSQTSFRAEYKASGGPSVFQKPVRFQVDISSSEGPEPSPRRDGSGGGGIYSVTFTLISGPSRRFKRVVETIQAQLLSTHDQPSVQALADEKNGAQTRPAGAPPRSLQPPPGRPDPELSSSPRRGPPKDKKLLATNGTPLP
Sequence of UniProt Q9HC98 (whole entry, looked up): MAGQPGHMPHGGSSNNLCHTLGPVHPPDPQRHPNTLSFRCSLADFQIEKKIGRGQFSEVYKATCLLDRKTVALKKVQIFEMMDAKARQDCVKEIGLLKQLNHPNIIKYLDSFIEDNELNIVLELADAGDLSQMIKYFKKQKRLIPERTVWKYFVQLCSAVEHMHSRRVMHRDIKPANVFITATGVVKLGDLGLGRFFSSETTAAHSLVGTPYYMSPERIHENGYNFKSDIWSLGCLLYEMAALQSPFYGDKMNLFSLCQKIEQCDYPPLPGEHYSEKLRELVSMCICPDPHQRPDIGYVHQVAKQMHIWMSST

Block 1
Target: RING finger protein unkempt homolog, zinc fingers 1-6, GST-SBP tag (UNK, Homo sapiens, UniProt Q9C0B0, residues 30-357)
Sequence of UniProt Q9C0B0 (30-357, looked up): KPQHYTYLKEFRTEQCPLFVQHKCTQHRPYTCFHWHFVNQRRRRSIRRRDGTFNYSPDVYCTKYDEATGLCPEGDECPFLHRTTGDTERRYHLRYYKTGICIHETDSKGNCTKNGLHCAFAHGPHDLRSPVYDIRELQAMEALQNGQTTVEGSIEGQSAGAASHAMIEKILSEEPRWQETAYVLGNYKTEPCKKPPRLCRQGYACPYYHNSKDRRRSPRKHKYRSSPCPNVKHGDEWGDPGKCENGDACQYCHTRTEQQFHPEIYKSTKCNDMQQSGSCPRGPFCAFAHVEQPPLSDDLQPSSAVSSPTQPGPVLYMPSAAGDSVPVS
Method: RNA Bind-n-Seq
Form: RNA
Sample: in vitro
Tested at: not given
Setting: RNA with constant flanks, human and mouse sites, ends assumed
Reference: input RNA pool
Direction: higher = stronger binding
Measurement: bound/input enrichment
Shared flanks, not repeated: GGGAGUUCUACAGUCCGACGAUC … CAACAGAGGAUUGAGCAUCA
Sequence = AAACGCAUCCGCUACCAUGGCAGAGGUCGCUUUGGGAUCAUGGAGAAGGUUUAUUGCCAUUAUUUUGUGAAGUUGGUGGAAGGGCCCCCACCUCCACCUGAGCCACCAAAGACGGCAGUU; result = 0.166 ratio
Sequence = CUGAACAAAAUUACCAAAAACCUAGGGUUUGGGAUGGGAAUUGAAUUCCGUGAAGGCUCCCUAGUAAUCAAUAGCAAAAAUCAAUACAAACUGAAGAAAGGAAUGGUUUUCAGCAUCAAU; result = 53.5 ratio
Sequence = GUAGUUGGAGGGUACUUCGGCAUUCAGCGCUGCAAGACUUUGGACUGUUACGACCCAACUUUAGAUGUGUGGAACAGCAUAACCACUGUUCCCUACUCUCUGAUCCCUACUGCAUUCGUC; result = 0.108 ratio
Sequence = GUGGUGUGAACACGGCUCACUGCAGCCUCAACCUCCUGGACUCAGAGAUGUCGGCUUAUUUAUAGGAAUUGCUUGAAGCCAGAGUCAUGGUGGAUGUCGGAAAGUGGCCCAUCUUCACUC; result = 0.162 ratio
Sequence = ACAACAGCUAGAGCUUUUGCUGUUGUAGCCUCUGCCCUGGGCAUUCCUUCUUUAUUGCCCUUCUUAAAAGCUGUGUGCAAAAGCAAGAAGUCCUGGCAAGCGAGACACACUGGUAUUAAG; result = 0.123 ratio
Sequence = CCGACUGUGGAGGAAAAAUGGAGGCUGCUUCCAGCAUUUUUAAAGGUUAAAGGCCUGGUGAAACAGCACAUAGACUCCUUUAACUAUUUCAUUAAUGUAGAGAUAAAGAAGAUAAUGAAA; result = 2.44 ratio
Sequence = AUACAGUGCCAGAACAAAGGCUGGGAUGGCUACGAUGUACAGUGGGAAUGUAAGACCGACUUGGAUAUUGCAUACAAAUUUGGCAAAACUGUGGUGAGCUGUGAAGGCUACGAGUCCUCU; result = 0.169 ratio
Sequence = GCUGUGGAUUCAGAGAUACUGGAGAUGCCACCUGAAAAAGCAGAUGGAGUAGUGGAGGGGAUAGAUGUAAAUGGACCAAAAGCACAGCUGAUGUUGCGGUAUCCAGAUGGAAAAAGGGAA; result = 1.1 ratio

Block 2
Compound: Cn1cnc2cc3c(Nc4cccc(Br)c4)ncnc3cc21
Effect on: enzyme activity
Action: inhibitor
Tested at: 0.5 µM
Reference: control
Measurement: remaining activity
target = MAP2K2 (Homo sapiens, UniProt P36507); result = 101%
target = TBK1 (Homo sapiens, UniProt Q9UHD2); result = 87.7%
target = GRK7 (Homo sapiens, UniProt Q8WTQ7); result = 106%
target = MAPK3 (Homo sapiens, UniProt P27361); result = 109%
target = ARAF (Homo sapiens, UniProt P10398); result = 119%
target = NEK6 (Homo sapiens, UniProt Q9HC98); result = 98.1%
target = MERTK (Homo sapiens, UniProt Q12866); result = 77.5%
target = FGFR3 (Homo sapiens, UniProt P22607); result = 98.6%
target = LCK (Homo sapiens, UniProt P06239); result = 47.7%
target = FRK (Homo sapiens, UniProt P42685); result = 93.6%
target = GSK3B (Homo sapiens, UniProt P49841); result = 101%
target = FGFR1 (Homo sapiens, UniProt P11362); result = 89.6%
target = RPS6KA2 (Homo sapiens, UniProt Q15349); result = 79.4%

Block 3
Target: Histone acetyltransferase KAT6A, both winged helices, GST fusion (KAT6A, Homo sapiens, UniProt Q92794, residues 1-181)
Method: protein binding microarray
Form: double-stranded DNA, one strand shown
Sample: in vitro
Tested at: not given
Setting: 8-mer, flanks averaged, mean of 2 arrays, mostly near background
Reference: not given
Direction: higher = stronger binding
Measurement: E-score
Residues (chain): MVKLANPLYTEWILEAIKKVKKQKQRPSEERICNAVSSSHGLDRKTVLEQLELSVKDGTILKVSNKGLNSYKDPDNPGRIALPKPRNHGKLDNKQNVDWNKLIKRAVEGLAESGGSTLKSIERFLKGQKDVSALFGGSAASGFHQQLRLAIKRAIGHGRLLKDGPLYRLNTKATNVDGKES
Sequence = ATTTATAC; result = 0.0648
Sequence = GAATACTA; result = -0.0772
Sequence = CTGTGGGC; result = -0.276
Sequence = CCGCTCCC; result = 0.244
Sequence = AAAATTGC; result = 0.116
Sequence = ACTTATCT; result = -0.161
Sequence = AGGGACTA; result = -0.127
Sequence = ACTGCGAT; result = -0.0173

Block 4
SMILES: CS(=O)(=O)NCC[C@H](NC(=O)c1cncc2c1cnn2-c1ccc(F)cc1)c1ccnc(S(C)(=O)=O)c1
Effect on: cell-free assay
Method: competition with immobilised ligand
Tested at: 1 µM
Measurement: remaining binding
target = BMX (Homo sapiens, UniProt P51813); result = 100%
target = DCLK3 (Homo sapiens, UniProt Q9C098); result = 93%
target = RIPK1 (Homo sapiens, UniProt Q13546); result = 99%
target = CIT (Homo sapiens, UniProt O14578); result = 73%
target = KIT (Homo sapiens, UniProt P10721, L576P); result = 100%
target = FGFR2 (Homo sapiens, UniProt P21802); result = 100%
target = DYRK1A (Homo sapiens, UniProt Q13627); result = 100%
target = BRSK1 (Homo sapiens, UniProt Q8TDC3); result = 99%
target = RAF1 (Homo sapiens, UniProt P04049); result = 76%
target = TNIK (Homo sapiens, UniProt Q9UKE5); result = 100%
target = KIT (Homo sapiens, UniProt P10721, T670I/V559D); result = 100%
target = EGFR (Homo sapiens, UniProt P00533, L861Q); result = 100%
target = MET (Homo sapiens, UniProt P08581); result = 79%
target = KIT (Homo sapiens, UniProt P10721); result = 100%

A few entries again (block 1):
Sequence = GCUGUGGAUUCAGAGAUACUGGAGAUGCCACCUGAAAAAGCAGAUGGAGUAGUGGAGGGGAUAGAUGUAAAUGGACCAAAAGCACAGCUGAUGUUGCGGUAUCCAGAUGGAAAAAGGGAA; result = 1.1 ratio
Sequence = AUACAGUGCCAGAACAAAGGCUGGGAUGGCUACGAUGUACAGUGGGAAUGUAAGACCGACUUGGAUAUUGCAUACAAAUUUGGCAAAACUGUGGUGAGCUGUGAAGGCUACGAGUCCUCU; result = 0.169 ratio
